{"data": "Published values pooled from the literature", "note": "Every numbered part comes from another study and shows a few of its results, in no order. “And” joins repeats or separate records; there may be more than shown.", "chain of UniProt P16220 (whole entry, looked up)": "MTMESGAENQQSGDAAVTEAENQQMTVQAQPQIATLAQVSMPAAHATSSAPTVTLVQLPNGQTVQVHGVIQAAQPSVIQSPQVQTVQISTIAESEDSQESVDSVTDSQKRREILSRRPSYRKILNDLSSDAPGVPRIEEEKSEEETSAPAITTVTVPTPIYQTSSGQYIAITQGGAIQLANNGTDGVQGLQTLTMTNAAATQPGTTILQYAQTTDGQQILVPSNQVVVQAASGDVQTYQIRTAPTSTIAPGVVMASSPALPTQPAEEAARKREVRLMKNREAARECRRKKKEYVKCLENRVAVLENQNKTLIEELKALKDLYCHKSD"}
{"data": "Block 1", "organism": "SARS-CoV-2", "effect on": "cytopathic effect", "cell line": "Vero E6", "concentration": "10 µM"}
{"Structure (SMILES)": "[O-][S+](c1ccccc1)c1ccc2nnnn2n1 (stereo not shown)", "inhibition": "-39.1%"}
{"Structure (SMILES)": "CCN(CC)C(=S)SSC(=S)N(CC)CC", "inhibition": "-21.6%"}
{"Structure (SMILES)": "CNS(=O)(=O)C[C@H]1CC[C@H](N(C)c2ncnc3[nH]ccc23)CC1", "inhibition": "-1.3%"}
{"Structure (SMILES)": "O=c1sn(-c2cccc3ccccc23)c(=O)n1Cc1ccccc1", "inhibition": "-3.5% and -6.7%"}
{"Structure (SMILES)": "C=CCN1CCc2cc(O)c(O)cc2C(c2ccccc2)C1 (stereo not shown)", "inhibition": "-1.9%"}
{"data": "Block 2", "target": "Interferon regulatory factor 7, full length, phosphomimetic (IRF7, Homo sapiens, UniProt Q92985, residues 1-503, S101K/S471D/S472D/S475D/S476D/S477D/S483D/S484D/S487D)", "technique": "protein-binding microarray", "form": "double-stranded DNA, one strand shown", "matrix": "in vitro", "concentration": "250 nM", "setting": "60-bp whole probe", "together with": "salmon DNA 0.4 mg/ml", "baseline": "random background probes", "reading": "higher = stronger binding", "all sequences stand within": "GCCTAGCAC … GTCTTGATTCGCTTGACGCTGCTG", "Target sequence (chain)": "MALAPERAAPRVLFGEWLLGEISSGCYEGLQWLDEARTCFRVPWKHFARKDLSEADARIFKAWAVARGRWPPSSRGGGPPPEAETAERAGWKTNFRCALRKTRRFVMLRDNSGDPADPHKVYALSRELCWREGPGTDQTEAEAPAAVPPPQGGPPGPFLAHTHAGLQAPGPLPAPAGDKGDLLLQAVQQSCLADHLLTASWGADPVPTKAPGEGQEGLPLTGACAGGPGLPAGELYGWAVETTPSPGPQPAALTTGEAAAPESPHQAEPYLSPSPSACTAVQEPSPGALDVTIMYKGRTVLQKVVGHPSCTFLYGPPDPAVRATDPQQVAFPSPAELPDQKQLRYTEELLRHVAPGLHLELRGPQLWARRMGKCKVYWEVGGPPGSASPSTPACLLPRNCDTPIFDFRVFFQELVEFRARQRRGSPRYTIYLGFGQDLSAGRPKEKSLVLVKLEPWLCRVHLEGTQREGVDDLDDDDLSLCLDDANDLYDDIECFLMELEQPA"}
{"Sequence": "TTAGATCTCAGTATCGATTCGTGCTAG", "log fluorescence": "2.73 z-score"}
{"Sequence": "TTAGAACTGAGACTGGCTTAGTGCTAG", "log fluorescence": "-0.483 z-score"}
{"Sequence": "GACGGTTTCGACTTTCGGGAGGTGCTA", "log fluorescence": "10.8 z-score"}
{"Sequence": "GACGGTCACCTTATCCTGACGTGCTAG", "log fluorescence": "-0.0847 z-score"}
{"Sequence": "GATTTTTTAGCTTGCAAAAAGTGCTAG", "log fluorescence": "0.228 z-score"}
{"Sequence": "TTGGGTTTCGGTATCGGTTAGTGCTAG", "log fluorescence": "9.5 z-score"}
{"Sequence": "TTAGAAGTGAGTTTCGATTAGTGCTAG", "log fluorescence": "7.61 z-score"}
{"Sequence": "GACGGTTTCGTGTTTCGGGACGTGCTA", "log fluorescence": "10.3 z-score"}
{"data": "Block 3", "target": "Replicase polyprotein 1ab, nsp13 helicase (rep, Severe acute respiratory syndrome coronavirus 2, UniProt P0DTD1)", "action": "inhibitor", "concentration": "20 µM"}
{"Compound": "N=C(N)c1ccc(OCCCCCOc2ccc(C(=N)N)cc2)cc1", "inhibition [%]": -2.02}
{"Compound": "CCNCc1cc(C(C)(C)C)c(O)c(C(C)(C)C)c1", "inhibition [%]": 3.39}
{"Compound": "CC(C)[C@@H](CN1CC[C@@](C)(c2cccc(O)c2)[C@@H](C)C1)NC(=O)[C@H]1Cc2ccc(O)cc2CN1", "inhibition [%]": -1.46}
{"Compound": "CCn1c(=O)n(C2=C(CO)CN(CC3CCCCCCC3)CC2)c2ccccc21", "inhibition [%]": 6.02}
{"Compound": "CCC(COC(=O)c1cc(OC)c(OC)c(OC)c1)(c1ccccc1)N(C)C (stereo not shown)", "inhibition [%]": 3.63}
{"Compound": "O=C(C[C@H]1NCCC[C@@H]1O)Cn1cnc2cc(Br)c(Cl)cc2c1=O (racemic)", "inhibition [%]": 3}
{"Compound": "COc1ccc(NS(=O)(=O)c2ccc(/N=N/c3ccc(O)c(C(=O)O)c3)cc2)nn1", "inhibition [%]": 8.25}
{"Compound": "CN1[C@@H]2CC[C@H]1CC(OC(=O)N1Cc3ccccc3NC1=O)C2 (stereo partly shown)", "inhibition [%]": 5.51}
{"Compound": "CC(C)(C)NCC(O)COc1cccc2[nH]c(=O)[nH]c12 (stereo not shown)", "inhibition [%]": 1.68}
{"Compound": "COc1cc2nc(N3CCN(C(=O)c4ccco4)CC3)nc(N)c2cc1OC", "inhibition [%]": 6.84}
{"Compound": "Cn1cc(-c2cc(Oc3cc(F)c(NC(=O)C4(C(=O)Nc5ccccc5)CC4)cc3F)ccn2)cn1", "inhibition [%]": 6.76}
{"Compound": "CN1CC(=O)NC1=N", "inhibition [%]": -4.9}
{"Compound": "N#C/C(=C1/SCC(c2ccccc2Cl)S1)n1ccnc1 (stereo not shown)", "inhibition [%]": 11.4}
{"Compound": "O=c1c(O)c(-c2ccc(O)cc2)oc2cc(O)cc(O)c12", "inhibition [%]": 3.36}
{"Compound": "CN1CCN(c2ccc3[nH]c(-c4ccc5[nH]c(-c6ccc(O)cc6)nc5c4)nc3c2)CC1", "inhibition [%]": 60.1}
{"Compound": "CN(C)CCN(Cc1ccc(Cl)cc1)c1ccccn1", "inhibition [%]": 4.22}
{"Compound": "Nc1ncnc2c1ncn2CCOCP(=O)(O)O", "inhibition [%]": -3.93}
{"Compound": "Cn1cnc2c(NCc3ccccc3)nc(NCCO)nc21", "inhibition [%]": 3.69}
{"Compound": "CN1C[C@H](C(=O)N[C@]2(C)O[C@@]3(O)[C@@H]4CCCN4C(=O)[C@H](Cc4ccccc4)N3C2=O)C[C@@H]2c3cccc4[nH]cc(c34)C[C@H]21", "inhibition [%]": 1.7}
{"data": "Block 4", "cell line": "HEK-293T", "organism": "VSV pseudotyped with SARS-CoV-2 spike", "concentration": "10 µM", "time": "16 h"}
{"SMILES": "OCCOc1ccc(/C(=C(/CCCl)c2ccccc2)c2ccccc2)cc1", "pseudovirus infection": "79.3%"}
{"SMILES": "CN(C)C(=N)N=C(N)N", "pseudovirus infection": "71.1%"}
{"SMILES": "COC(=O)C1=C(C)NC(C)=C(C(=O)OC)C1c1ccccc1[N+](=O)[O-]", "pseudovirus infection": "81.6%"}
{"SMILES": "Clc1ccccc1CN1CCc2sccc2C1", "pseudovirus infection": "87.1%"}
{"data": "Single results of other studies", "technique": "protein-binding microarray", "form": "double-stranded DNA, one strand shown", "matrix": "in vitro", "concentration": "not given", "setting": "k-mer, scored over probes, only values ≥0.25", "reading": "higher = stronger binding", "MYC bHLH-zipper, MAX partner unstated": "Myc proto-oncogene protein, bHLH-zipper, MAX partner unstated (MYC, Homo sapiens, UniProt P01106, residues 368-449)", "chain of UniProt P01106 (368-449, looked up)": "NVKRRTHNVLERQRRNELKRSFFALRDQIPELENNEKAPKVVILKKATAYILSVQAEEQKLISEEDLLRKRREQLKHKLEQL"}
{"Sequence": "CGTGCTTC", "target": "MYC bHLH-zipper, MAX partner unstated", "E-score": 0.359}
{"Sequence": "ACGTGTC", "target": "Cyclic AMP-responsive element-binding protein 1 (CREB1, Homo sapiens, UniProt P16220, residues 1-327, full length assumed)", "E-score": 0.272}
{"Sequence": "GTGCTTCA", "target": "MYC bHLH-zipper, MAX partner unstated", "E-score": 0.28}
{"Sequence": "ATGACACG", "target": "Protein max, full length (MAX, Homo sapiens, UniProt P61244-2, residues 1-151)", "E-score": 0.37}
{"note": "Repeated from above (block 3):"}
{"Compound": "Cn1cc(-c2cc(Oc3cc(F)c(NC(=O)C4(C(=O)Nc5ccccc5)CC4)cc3F)ccn2)cn1", "inhibition [%]": 6.76}
{"Compound": "CN1CC(=O)NC1=N", "inhibition [%]": -4.9}
{"Compound": "N#C/C(=C1/SCC(c2ccccc2Cl)S1)n1ccnc1 (stereo not shown)", "inhibition [%]": 11.4}
{"Compound": "O=c1c(O)c(-c2ccc(O)cc2)oc2cc(O)cc(O)c12", "inhibition [%]": 3.36}
